Assay results gathered from unrelated publications.
A part holds a random share of what one study measured. Substitutions count along the parent as printed.

Study 1 — method: DHFR PCA, deep sequencing; matrix: yeast; together with: (+)-ABA 710 µM; relative to: wild-type fitted maximum; reading: higher = stronger binding
Target: ABI1, truncated, D143A, DHFR fusion (Arabidopsis thaliana)
Setting: methotrexate growth selection, single substitutions
Starting sequence: PYL1, truncated, DHFR fusion (Arabidopsis thaliana); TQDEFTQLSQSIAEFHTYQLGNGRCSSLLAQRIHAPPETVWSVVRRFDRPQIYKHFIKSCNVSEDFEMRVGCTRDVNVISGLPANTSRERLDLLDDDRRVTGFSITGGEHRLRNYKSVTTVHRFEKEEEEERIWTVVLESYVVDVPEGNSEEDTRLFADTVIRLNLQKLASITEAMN; partner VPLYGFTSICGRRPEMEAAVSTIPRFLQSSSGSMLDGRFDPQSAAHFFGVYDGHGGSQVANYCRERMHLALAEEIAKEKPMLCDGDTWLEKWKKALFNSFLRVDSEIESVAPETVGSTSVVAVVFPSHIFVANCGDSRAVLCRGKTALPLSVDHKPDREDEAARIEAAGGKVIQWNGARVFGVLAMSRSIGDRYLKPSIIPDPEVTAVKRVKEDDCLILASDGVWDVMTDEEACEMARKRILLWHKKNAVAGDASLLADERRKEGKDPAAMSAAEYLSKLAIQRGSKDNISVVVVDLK
Change	relative binding score
P83G	85.5%
Q31N	71.6%
N61W	98.7%
F47P	7.26%
I105E	39.6%
V142G	82%

Study 2 — method: RNA Bind-n-Seq; form: RNA; matrix: in vitro; tested at: 1 µM; setting: whole 134-nt RNA, ends assumed; together with: 150 mM KCl; relative to: input library; reading: higher = stronger binding
Target: Ras GTPase-activating protein-binding protein 1, C-terminal RGG region (G3BP1, Homo sapiens, UniProt Q13283)
Chain of UniProt Q13283 (whole entry, looked up): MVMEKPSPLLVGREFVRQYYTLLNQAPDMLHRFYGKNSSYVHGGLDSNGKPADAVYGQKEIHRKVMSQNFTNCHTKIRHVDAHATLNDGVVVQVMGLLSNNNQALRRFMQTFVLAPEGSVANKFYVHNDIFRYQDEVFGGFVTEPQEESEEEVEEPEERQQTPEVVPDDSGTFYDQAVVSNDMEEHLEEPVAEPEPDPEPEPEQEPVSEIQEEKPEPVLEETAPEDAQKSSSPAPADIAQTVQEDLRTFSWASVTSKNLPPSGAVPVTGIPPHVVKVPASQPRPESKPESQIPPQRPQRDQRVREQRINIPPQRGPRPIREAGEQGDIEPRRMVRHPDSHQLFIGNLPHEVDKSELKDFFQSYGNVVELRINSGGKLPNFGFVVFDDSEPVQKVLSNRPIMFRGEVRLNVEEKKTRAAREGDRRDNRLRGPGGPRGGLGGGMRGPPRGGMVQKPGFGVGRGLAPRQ
Shared flanks, not repeated: GGGAGUUCUACAGUCCGACGAUC … UGGAAUUCUCGGGUGUCAAGG
Strand	log2 enrichment
CAAGUCCUGUGCUACACAUCGUAUGUACCGAAUCGGUUUUUUUGGUUUUUGGUGGAAAGUAUUAUGUUACGCCGUUCGGAUCUGCACUUC	-1.72
CUCAAGUCCUGUGCUACACAUCGUAUGUACCGAAUCGGUGGUGGUUUUUUUGGAAAGUAUUAUGUUACGCCGUUCGGAUCUGCACUUCCA	-0.783
CCUGUGCUACACAUCGUAUGUACCGAAUCGGGUUUUUUGGGGUUUUUUGGGGUUUUUUGGGAAAGUAUUAUGUUACGCCGUUCGGAUCUG	-0.705
UGGGAGGUGGAUUUUGUUUAUUUUUUUAGCUCAUUUCCAGGGGUGGGAAUUUUUUUUUAAUAUGUGUUAUGAAUAAAGUUGUUUUUGAAA	3.19
UGUCCCUGGUGGCAUGCGGGGAGGAAGAGGUGGCCUCAUGGAUCGUGGUGGUCCCGGUGGAAUGUUCAGAGGUGGCCGUGGUGGAGACAG	2.34
UGUCUGGUGACAAGGAAGAGGAUGCUCCUCAUAGAGAAGAUUACUUUGAGCCCAUUUCUCCUGAUCGGAAUUCUGUUCCCCAGGAAGGGC	-2.11
GUCCUGUGCUACACAUCGUAUGUACCGAAUCGGGAAAAAGGGUUUGGGUUUUUUUGGGAAAGUAUUAUGUUACGCCGUUCGGAUCUGCAC	-0.144
UUCCCCACUUCCUUCCCUCCAGUCCCCACUCACUCACAUGCACACACUAACCUUGGAGCCGAUGGGAUUGAGUGACUGGCACUUGGGACC	1.09
UUCCUCAAGUCCUGUGCUACACAUCGUAUGUACCGAAUCGGAGGAGGGAGGAAAGUAUUAUGUUACGCCGUUCGGAUCUGCACUUCCAGC	-1.32
UGUGCUACACAUCGUAUGUACCGAAUCGGGGUUUUUUUGGGUUUUUUUGGGGUUUUUUUGGGAAAGUAUUAUGUUACGCCGUUCGGAUCU	-1.04
CACAGACAACACGCACCCACACAGACACAGAGGGAAGGGGUUGGGAUGGGGACAGGGUGCACAGCAGGGCGGGGUAGGACCCCAGCCUCU	-0.907
CCUGUGCUACACAUCGUAUGUACCGAAUCGGGGCCCCCCGGGCCCCCCGGGGCCCCCCGGGAAAGUAUUAUGUUACGCCGUUCGGAUCUG	-1.94

Study 3 — target: CCNB3, cyclin fold, Cln2 fusion (human); method: yeast growth competition, sequencing; matrix: yeast; setting: weak parent motif; relative to: not given; reading: higher = stronger binding
Starting sequence: CDC6 docking peptide (human); TLKGRRLVFDNQL; partner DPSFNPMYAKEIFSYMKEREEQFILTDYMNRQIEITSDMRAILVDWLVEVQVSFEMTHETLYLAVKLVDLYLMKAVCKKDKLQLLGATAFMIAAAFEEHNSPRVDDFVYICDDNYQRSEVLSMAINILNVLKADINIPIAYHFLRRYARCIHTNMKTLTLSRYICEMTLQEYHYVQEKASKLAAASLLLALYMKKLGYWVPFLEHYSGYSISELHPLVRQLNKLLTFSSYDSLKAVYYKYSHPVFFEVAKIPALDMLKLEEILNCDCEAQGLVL
Change	normalised enrichment score
R6K	0.102
R5G	0.177
Q12F	1.01
L7E	0.291
R5H	-0.243
K3S	0.171
L2N	-0.204

Other studies, line by line
Molecule	target	assay	system	setting	how to read	endpoint	result
PhoQ, residues 284 288 289 292 302 303 AQGLTV	PhoP, residues 12 14 15 18 19 VQGLL (Escherichia coli, UniProt P23836)	Sort-seq, measured: YFP reporter	E. coli	PhoQ-PhoP variant library, together with: 10 µM Mg2+	relative to: high Mg2+ state, higher = stronger signaling	fold induction	1.48
